Measured values collected from several papers.
Protocols differ between the studies behind these lines. ± marks the error that the study gave.

SMILES | tested on | assay | system | setting | how to read | quantity | result
CC(C)Cc1ccc(C(C)C(=O)N[C@@H](CCCCNC(=O)CCOCCOCCOCCOCCOCCOCCNC(=O)CN2CCN(CC(=O)[O-])CCN(CC(=O)[O-])CCN(CC(=O)[O-])CC2)C(=O)Nc2cccc3c(C(=O)NCC(=O)N4CC(F)(F)C[C@H]4C#N)ccnc23)cc1.[177Lu+3] (stereo partly drawn) |  |  | mouse, U-87 MG tumour xenograft, lung | 24 h |  | tissue uptake | 0.67 ± 0.24 %ID/g
COc1cccc(OC)c1-c1cc(C(=O)NC2(C(=O)O)C3CC4CC(C3)CC2C4)nn1-c1ccc(C(=O)N(C)CCOCCOCCN(C)C(=O)[C@H](CCCCNC(=O)[C@H](CC(C)C)NC(=O)C2OC2C(=O)O)NC(=O)CN2CCN(CC(=O)[O-])CCN(CC(=O)[O-])CCN(CC(=O)[O-])CC2)cc1C(C)C.[177Lu+3] (mixture of isomers) |  |  | mouse HT-29 xenograft, small intestine | 24 h post injection, biodistribution |  | tissue uptake | 0.179 %ID/g
COC1CN([C@H]2CC[C@H]([C@@]3(C)Oc4c(Cl)cc(C(=O)NCc5c(SC)cc(C)[nH]c5=O)c(C)c4O3)CC2)C1 |  | RNA-seq, refers to: SMARCD3 mouse homolog | mouse, HT-1376 xenograft, whole blood | dose not given | reference: vehicle | log2 fold change | 0.515
Cc1ncsc1-c1ccc(C(C)NC(=O)C2CC(O)CN2C(=O)C(NC(=O)CCCCCCCCCCN2CCCC(Nc3ncc(Cl)c(Nc4ccccc4S(=O)(=O)C(C)C)n3)C2)C(C)(C)C)cc1 (stereo not drawn) | 22Rv1 | RNA-seq, refers to: USP46-AS1 |  | concentration not given | reference: DMSO | log2 fold change | -1.31
CCCC[C@H](NC(=O)CNC(=O)CNC(=O)[C@H](CCCCNC(=O)[C@H](CC(=O)O)NC(=O)C(C)c1ccc(CC(C)C)cc1)NC(=O)CN1CCN(CC(=O)O)CCN(CC(=O)O)CCN(CC(=O)O)CC1)C(=O)N[C@H]1CC(=O)NCCCC[C@@H](C(N)=O)NC(=O)[C@H](Cc2c[nH]c3ccccc23)NC(=O)[C@H](CCCNC(=N)N)NC(=O)[C@@H](Cc2ccccc2)NC(=O)[C@H](Cc2c[nH]cn2)NC1=O (stereo partly drawn) [lutetium-177 labelled] |  |  | C57 mouse, blood | intravenous, 2 h, together with: 10 µg NDP-MSH co-injection |  | tissue uptake | 1.8 ± 0.44 %ID/g
CC(C)C[C@H](NC(=O)[C@@H](CCCCNC(=O)[C@@H](Cc1ccccc1)NC(=O)CCCCCCCNC(=O)CN1CCN(CC(=O)O)CCN(CC(=O)O)CCN(CC(=O)O)CC1)NC(=O)[C@H](Cc1ccc(O)cc1)NC(=O)[C@H](CO)NC(=O)[C@H](Cc1c[nH]c2ccccc12)NC(=O)[C@H](Cc1c[nH]cn1)NC(=O)[C@@H]1CCC(=O)N1)C(=O)N[C@@H](CCCNC(=N)N)C(=O)N1CCC[C@H]1C(=O)NCC(N)=O [indium-111 labelled] |  |  | male athymic nude mice, DU-145 prostate cancer xenograft, blood | intravenous, 0.037 MBq, 4 h |  | tissue uptake | 0.07 ± 0.05 %ID/g
O=C(O)CCCOc1ccc([18F])cc1-c1cc(-c2ccccc2C(F)(F)F)n(-c2ccccc2)n1 |  |  | mouse, large intestine | intravenous, dose not given, 15 min |  | tissue uptake | 0.56 ± 0.08 %ID/g
COc1cccc(OC)c1-c1cc(C(=O)NC2(C(=O)O)C3CC4CC(C3)CC2C4)nn1-c1ccc(C(=O)N(C)CCCN(C)C(=O)[C@H](CCCCNC(=O)[C@H](CC(C)C)NC(=O)C2OC2C(=O)O)NC(=O)CN2CCN(CC(=O)[O-])CCN(CC(=O)[O-])CCN(CC(=O)[O-])CC2)cc1C(C)C.[177Lu+3] (mixture of isomers) |  |  | mouse, HT-29 xenograft, HT-29 tumour | 24 h post injection |  | tissue uptake | 2.7 %ID/g
O=C(NCC1OC2CCC=CCCC2O1)c1ccc([18F])nc1 (stereo not drawn) |  |  | healthy female BALB/c nude mice, heart | intravenous, 7.4 MBq per mouse, 5 min |  | tissue uptake | 4.2 ± 1.3 %ID/g
COc1cccc(OC)c1-c1cc(C(=O)NC2(C(=O)O)C3CC4CC(C3)CC2C4)nn1-c1ccc(C(=O)N(C)CCCN(C)CCCN(C)C(=O)[C@H](CCCCNC(=O)[C@H](CC(C)C)NC(=O)C2OC2C(=O)O)NC(=O)CN2CCN(CC(=O)[O-])CCN(CC(=O)[O-])CCN(CC(=O)[O-])CC2)cc1C(C)C.[177Lu+3] (mixture of isomers) |  |  | mouse, HT-29 xenograft, spleen | 168 h post injection |  | tissue uptake | 0.57 %ID/g
CN1CCCNC(=O)c2cccc(c2)C(=O)NCCCN(C)CCCNc2cccc3c2C(=O)c2cccc(c2C3=O)NCCC1 | SAS | RNA-Seq, refers to: TRNAU1AP mRNA |  | 1 µM, 6 h | reference: untreated cells | log2 fold change | -0.976
N#C[C@@H]1CC(F)(F)CN1C(=O)CNC(=O)c1ccnc2c(NC(=O)[C@H](CCCCNC(=O)CCOCCOCCOCCOCCOCCOCCNC(=O)CN3CCN(CC(=O)[O-])CCN(CC(=O)[O-])CCN(CC(=O)[O-])CC3)NC(=O)CCCc3ccc(I)cc3)cccc12.[177Lu+3] |  |  | mouse, U-87 MG tumour xenograft, kidneys | 4 h |  | tissue uptake | 2.07 ± 1.81 %ID/g
[123I]c1ccc2nc(-c3ccc(-n4ccnn4)nc3)cn2c1 |  |  | Wistar rat, bone | intravenous, 24 h |  | tissue uptake | not detected
CNS(=O)(=O)Nc1nccc(Cc2c(C)c3ccc(Oc4ncccc4F)cc3oc2=O)c1F | NCI-H2087 | cell viability |  | 7 days |  | IC50 | 1.15 nM
CCCC[C@H](NC(=O)COCCOCCNC(=O)CN1CCN(CC(=O)O)CCN(CC(=O)O)CC1)C(=O)N[C@H]1CC(=O)NCCCC[C@@H](C(N)=O)NC(=O)[C@H](Cc2c[nH]c3ccccc23)NC(=O)[C@H](CCCNC(=N)N)NC(=O)[C@@H](Cc2ccccc2)NC(=O)[C@H](Cc2c[nH]cn2)NC1=O [fluorine-18 labelled] |  |  | C57 mice B16-F10 melanoma, blood | intravenous, 0.37 MBq, 0.5 h |  | tissue uptake | 1.96 ± 0.3 %ID/g
[11CH3]N1CCC(NC(=O)c2cc(-c3c(O)cc(O)cc3Oc3ccc([N+](=O)[O-])cc3)on2)CC1 |  |  | Wistar rat, female, healthy, urine | intravenous, 2 min |  | tissue uptake | 0 %ID
COc1cccc(OC)c1-c1cc(C(=O)NC2(C(=O)O)C3CC4CC(C3)CC2C4)nn1-c1ccc(C(=O)N(C)CCOCCN(C)C(=O)[C@H](CCCCNC(=O)[C@H](CC(C)C)NC(=O)C2OC2C(=O)O)NC(=O)CN2CCN(CC(=O)[O-])CCN(CC(=O)[O-])CCN(CC(=O)[O-])CC2)cc1C(C)C.[177Lu+3] (mixture of isomers) |  |  | mouse, HT-29 xenograft, lung | 168 h post injection |  | tissue uptake | 0.45 %ID/g
O=C1NC2(CC2)COc2ncc(F)cc2[C@H]2COCCN2c2ccn3ncc1c3n2 | CHL cells | chromosomal aberration test |  | 20 µg/mL, 24 h, without S9 mix | reference: solvent control | relative population doubling | 27.6%
O=C1C2CC3CC1CC(C(=O)N1CCN(c4ccc([N+](=O)[O-])c5ncccc45)CC1)(C3)C2 | Salmonella typhimurium | Ames test | TA98 | 0.02 µg/well, without S9 | reference: vehicle | revertant fold increase | 1.4
C=C(NC(=O)c1csc(-c2nc3c(cc2O)-c2nc(cs2)C(=O)NC(C(C)O)C(=O)NC(=C(C)OC)c2nc(cs2)C(=O)NC2c4nc(cs4)C(=O)NC(COC(=O)c4c5c6c(cccc6n4O)COC(=O)C(OC4CC(C)(O)C(N(C)C)C(C)O4)C2OC5)c2nc-3cs2)n1)C(N)=O (stereo not drawn) |  |  | female Sprague-Dawley rat, plasma | intravenous, 6 mg/kg, single dose, infusion |  | Cmax | 5240 ng/mL
CCCC[C@H](NC(=O)CCCCCCCNC(=O)CN1CCN(CC(=O)O)CCN(CC(=O)O)CC1)C(=O)N[C@H]1CC(=O)NCCCC[C@@H](C(N)=O)NC(=O)[C@H](Cc2c[nH]c3ccccc23)NC(=O)[C@H](CCCNC(=N)N)NC(=O)[C@@H](Cc2ccccc2)NC(=O)[C@H](Cc2c[nH]cn2)NC1=O [fluorine-18 labelled] |  |  | C57 mice, B16/F10 melanoma, blood | intravenous, 1 h, together with: NDP-MSH 10 µg |  | tissue uptake | 0.32 ± 0.14 %ID/g

Repeated from above:
SMILES | tested on | assay | system | setting | how to read | quantity | result
O=C1C2CC3CC1CC(C(=O)N1CCN(c4ccc([N+](=O)[O-])c5ncccc45)CC1)(C3)C2 | Salmonella typhimurium | Ames test | TA98 | 0.02 µg/well, without S9 | reference: vehicle | revertant fold increase | 1.4
Cc1ncsc1-c1ccc(C(C)NC(=O)C2CC(O)CN2C(=O)C(NC(=O)CCCCCCCCCCN2CCCC(Nc3ncc(Cl)c(Nc4ccccc4S(=O)(=O)C(C)C)n3)C2)C(C)(C)C)cc1 (stereo not drawn) | 22Rv1 | RNA-seq, refers to: USP46-AS1 |  | concentration not given | reference: DMSO | log2 fold change | -1.31
